Experimental data of several laboratories.
Each line is one published result; not all experiments were run side by side. “And” joins repeats or separate records; there may be more than shown. Numbers after ± are the reported error. Values after ≈ are worked out from the molar mass of the structure shown.

COC(=O)C1OC(Oc2c(-c3ccccc3)oc3cc(O)c(O)c(O)c3c2=O)C(O)C(O)C1O (stereo not drawn)  organ weight (BALB/c mouse, liver; 1 mg/kg): 3.4 ± 0.5 g
CN1CCN(c2ccc(Nc3ncc(Cl)c(Nc4ccccc4P(C)(C)=O)n3)cc2Br)CC1  MRT(0-inf) (Sprague-Dawley rat, male, plasma; oral, 25 mg/kg): 18 h and 10.5 h and 40.1 h
CC(C)C[C@@H](NC(=O)[C@H](NC(=O)[C@H]1CCCN1)[C@H](C)O)C(=O)N[C@H](Cc1c[nH]cn1)C(=O)N[C@@H](C(=O)N[C@H](Cc1c[nH]cn1)C(=O)N[C@H](CC(N)=O)C(=O)N[C@H](CCCNC(=N)N)C(=O)N[C@H](CCCNC(=N)N)C(=O)N[C@H](CCCNC(=N)N)C(=O)N[C@H](CCCNC(=N)N)C(=O)N[C@H](CCCNC(=N)N)C(N)=O)[C@H](C)O  apparent half-life (Beagle dog, CSF; intravenous, 3 mg/kg, single dose, last 2 points): 80 ± 5.6 h
CCCCC1NC(=O)c2ccccc21 (racemic)  CL/F (Wistar rat, plasma; oral, 10 mg/kg): 12.9 mL/min/kg
CC(C)c1cnc(-c2cc(Cl)ccc2F)cc1Nc1ccncc1C(=O)NC(CO)CO  patients with related SAE (refers to: intracranial tumour haemorrhage; human patients; oral, dose not given, grade 5): 0%
CC(C)[C@H](NC(=O)CNC(=O)[C@H](CCC(N)=O)NC(=O)[C@H](C)N)C(=O)O  Cmax (human male, plasma; intravenous infusion, 30 mg/kg single, 15 min infusion, geometric mean): 3070 ng/mL
CC(C)[C@H](NC(=O)[C@@H]1CCCN1C(=O)[C@H](CCCNC(=N)N)NC(=O)[C@H](CS)NC(=O)[C@H](Cc1c[nH]c2ccccc12)NC(=O)[C@H](CCCNC(=N)N)NC(=O)[C@@H](Cc1ccccc1)NC(=O)[C@H](Cc1c[nH]cn1)NC(=O)[C@H](CCC(=O)O)NC(=O)[C@H](CS)NC(=O)[C@H](CS)NC(=O)CNC(=O)[C@@H]1CC(=O)N[C@@H](CCCNC(=N)N)C(=O)NCC(=O)N[C@@H](CC(=O)O)C(=O)N[C@H](Cc2ccc(O)cc2)C(=O)N1)C(N)=O [technetium-99m labelled]  tumour to tissue ratio (C57 mouse, female, B16/F1 melanoma; intravenous, 0.037 MBq, 2 h; reference: tumour over muscle): 20.2
Cc1ccc(OCC(=O)O)cc1  t1/2 (Sprague-Dawley rat, male, plasma; oral gavage, 100 mg/kg of parent drug): 197 min
CCCC(CCC)NC(=O)c1ccc(OS(=O)(=O)O)c(OC)c1  AUC(0-last) ratio (male Sprague-Dawley rats, plasma; oral, 200 mg/kg of parent drug; reference: 200 over 20 mg/kg dose): 12.8
OCc1[nH]nc2c1N=C(c1ccccc1Cl)c1cnc(N3CCOCC3)cc1N2  excretion in feces (human, feces; oral, 10 mg, 0 to 192 h; reference: dose): 3%
COc1ccc(/C=C/c2ccc(-c3ccc(C)cn3)nc2)cc1  fluorescence lifetime (TCSPC; dioxane): 0.84 ns
CC(C)C(=O)NC1CC=C(c2cc3c(Nc4cc5ncsc5cc4F)ncnc3s2)CC1 (racemic)  half-life (metabolic stability; human, liver microsomes): 53.3 min
Cn1c(=O)oc2ccc(-c3ccc(CC(C#N)NC(=O)C4CNCCCO4)c(F)c3)cc21 (stereo not drawn)  CPK increased incidence (human; oral, 10 mg once daily, TEAE, multiple ascending dose): 0%
C[Si]1(C[C@H](CN)CC(=O)O)CCCC1  performance time (neuromuscular coordination; Wistar rat male; oral, 300 mg/kg, 2 h): 180 s
COC1CN([C@H]2CC[C@H]([C@@]3(C)Oc4c(Cl)cc(C(=O)NCc5c(SC)cc(C)[nH]c5=O)c(C)c4O3)CC2)C1  tolerability (human, advanced tumours, phase I; oral, dose not given, once daily dosing): not toxic
COCCOCCOCCOc1ccc(/C=C/C2=[N+]3C(=C(c4cc(OC)cc(OC)c4)c4c(C)c(I)c(/C=C/c5ccc(OCCOCCOCCOC)cc5)n4[B-]3(F)F)C(C)=C2I)cc1  absorption maximum (dichloromethane): 664 nm
O=C(C1CC1)N1CC=C(c2cc3c(Nc4cc5ncsc5cc4F)ncnc3s2)CC1  half-life (metabolic stability; human, liver microsomes): > 120 min
CC(C)(O)c1ncc([S@](N)(=O)=NC(=O)Nc2c3c(cc4c2CCC4)CCC3)s1  Tmax (healthy humans; oral, 30 to 600 mg, suspension, median range): 1.5 to 3 h
CCOP(=O)(CC(=O)Nc1ccc(S(=O)(=O)N(CC(N)=O)c2ccc(N(CC(N)=O)S(=O)(=O)c3ccc(OC)cc3)c3ccccc23)cc1)OCC  organ histopathology (HE staining; APP/PS1 mice, heart, liver, lung, spleen, kidney; 40 mg/kg, 2 months): no effect
C/C=C/CNC(=N)NCCCCCCCCN1CCCc2ccccc2COc2ccccc2CNC(=N)NC1=O  membrane retention (PAMPA; egg phosphatidylcholine in dodecane; 500 µM, 5 h, pH 7.4, room temperature): 55.3%
CC(=O)N[C@H](CC(=O)O)C(=O)N[C@H](Cc1c[nH]c2ccccc12)C(=O)N[C@H](Cc1ccccc1)C(=O)N[C@H](CCCCN)C(=O)N[C@H](C)C(=O)N[C@H](Cc1ccccc1)C(=O)N[C@H](Cc1ccc(O)cc1)C(=O)N[C@H](CC(=O)O)C(=O)N[C@H](CCCCN)C(=O)N[C@@H](C(=O)N[C@H](C)C(=O)N[C@H](CCC(=O)O)C(=O)N[C@H](CCCCN)C(=O)N[C@H](Cc1ccccc1)C(=O)N[C@H](CCCCN)C(=O)N[C@H](CCC(=O)O)C(=O)N[C@H](C)C(=O)N[C@H](Cc1ccccc1)C(N)=O)C(C)C  AUC(0-t) (statin-treated high-risk CHD men, plasma; oral, 300 mg daily, day 1, 0 to 2 h, mean, undetectable set to 0): 4.56 ng·h/mL
O=C([O-])CN1CCN(CC(=O)[O-])CCN(C(CCC(=O)NC(Cc2c[nH]c3ccc(O)cc23)C(=O)NCCc2c[nH]c3ccc(O)cc23)C(=O)O)CCN(CC(=O)[O-])CC1.[Gd+3] (stereo not drawn)  slow-phase half-life (ICP-MS; mouse, blood; iv, 0.1 mmol/kg): 31.7 min
COc1cc2ncnc(Oc3ccc4c(C(N)=O)c(C)oc4c3)c2cc1OC  decrease in exposure (refers to: Cmax; human, moderate renal impairment; oral; reference: normal renal function): ~32%
COc1ccc2cc(-c3ccc(-c4ccc(C)cn4)nc3)oc2c1  absorption maximum (aqueous HEPES buffer; pH 7.4, zinc-free ligand): 347 nm
O=C(NCCCN(CCCCN(CCCNC(=O)c1cccc(=O)n1[O-])C(=O)c1cccc(=O)n1[O-])C(=O)c1cccc(=O)n1[O-])c1cccc(=O)n1[O-].[89Zr+4]  intact complex (radio-TLC; PBS; 1 d, pH 7.4, 37 °C, with: Co^2+ 10-fold excess): 98.2 ± 2.6%
Cc1ccccc1/N=N/c1ccc(/N=N/c2c(O)ccc3ccccc23)c(C)c1  freeze-thaw stability deviation (rat whole blood; 16.0 µg/L, freeze-thaw cycle 3): 0.4%
Cc1ccc(NCC(=O)Nc2ccc(F)c(Cl)c2)cc1S(=O)(=O)N1CCOCC1  kinetic solubility (water): 160 µM (≈ 70.7 µg/mL)
CC(C)CCCC(C)CCCC(C)CCO[C@@H]1O[C@H](CO)[C@@H](O[C@H]2O[C@H](CO)[C@@H](O)[C@H](O)[C@H]2O)[C@H](O)[C@H]1O (stereo partly drawn)  equilibrium surface tension (dynamic surface tension; 0.0018 mmol/L): 47 mN/m
N=C(N)NCCC[C@@H]1NC(=O)[C@H](Cc2c[nH]c3ccccc23)NC(=O)[C@@H](CC2CCCCC2)NC(=O)[C@@H]2CCCN2C(=O)[C@@H](NC(=O)CCc2ccccc2)CCCNC1=O  beta rate constant (two-compartment model; C57BL/6J mice, plasma; intraperitoneal, 1 mg/kg): 0.03 min⁻¹
CCCCCCCC(=O)OC[C@H](NC(=O)[C@H](CO)NC(=O)CN)C(=O)N[C@@H](Cc1ccccc1)C(=O)N[C@@H](CC(C)C)C(=O)N[C@@H](CO)C(=O)N1CCC[C@H]1C(=O)N[C@@H](CCC(=O)O)C(=O)N[C@@H](Cc1cnc[nH]1)C(=O)N[C@@H](CCC(N)=O)C(=O)N[C@@H](CCCNC(=N)N)C(=O)N[C@H](C(=O)N[C@@H](CCC(N)=O)C(=O)N[C@@H](CCC(N)=O)C(=O)N[C@@H](CCCNC(=N)N)C(=O)N[C@@H](CCCCN)C(=O)N[C@@H](CCC(=O)O)C(=O)N[C@@H](CO)C(=O)N[C@@H](CCCCN)C(=O)N[C@@H](CCCCN)C(=O)N1CCC[C@H]1C(=O)N1CCC[C@H]1C(=O)N[C@@H](C)C(=O)N[C@@H](CCCCN)C(=O)N[C@@H](CC(C)C)C(=O)N[C@@H](CCC(N)=O)C(=O)N1CCC[C@H]1C(=O)N[C@@H](CCCNC(=N)N)C(=O)O)C(C)C  thirst score (patients with chronic HFrEF; iv infusion, 0.1 µg/kg/min, end of 120 min infusion, scale 1-10, median; direction not given): 5
COc1cc2c(cc1OC)CN(CCCCn1ccc3cc(OCC[18F])ccc31)C2  uptake (ICR mice, male, small intestine; intravenous, 60 min): 18.1 ± 1.2 %ID/organ
C#CCOc1ccc(/C=C2\SC(=O)N(CC(=O)NCc3ccccc3)C2=O)cc1  Kirkwood-Buff integral G2,3 (inverse Kirkwood-Buff integrals; binary solvent mixture; 298.15 K, mole fraction x1 0.20): -437 cm³/mol
C=C(c1cc(F)c(C(=O)O)c(F)c1)c1cc2c(cc1C)C(C)(C)CCC2(C)C  LDL level (Sprague-Dawley rat, male, plasma; oral, 100 mg/kg, 2 h, sesame oil vehicle): 14 ± 6.1 mg/dL

A few entries again:
C[Si]1(C[C@H](CN)CC(=O)O)CCCC1  performance time (neuromuscular coordination; Wistar rat male; oral, 300 mg/kg, 2 h): 180 s
Cn1c(=O)oc2ccc(-c3ccc(CC(C#N)NC(=O)C4CNCCCO4)c(F)c3)cc21 (stereo not drawn)  CPK increased incidence (human; oral, 10 mg once daily, TEAE, multiple ascending dose): 0%
CN1CCN(c2ccc(Nc3ncc(Cl)c(Nc4ccccc4P(C)(C)=O)n3)cc2Br)CC1  MRT(0-inf) (Sprague-Dawley rat, male, plasma; oral, 25 mg/kg): 18 h and 10.5 h and 40.1 h
